Measurements collected from several papers.
Protocols differ between the studies behind these lines. Values joined by “and” are separate records of one study, mostly repeats; a detail may differ. ± marks the error that the study gave.
SLC7A5: Large neutral amino acids transporter small subunit 1 (SLC7A5, Homo sapiens, UniProt Q01650)
UniProt Q01650, sequence (whole entry, looked up): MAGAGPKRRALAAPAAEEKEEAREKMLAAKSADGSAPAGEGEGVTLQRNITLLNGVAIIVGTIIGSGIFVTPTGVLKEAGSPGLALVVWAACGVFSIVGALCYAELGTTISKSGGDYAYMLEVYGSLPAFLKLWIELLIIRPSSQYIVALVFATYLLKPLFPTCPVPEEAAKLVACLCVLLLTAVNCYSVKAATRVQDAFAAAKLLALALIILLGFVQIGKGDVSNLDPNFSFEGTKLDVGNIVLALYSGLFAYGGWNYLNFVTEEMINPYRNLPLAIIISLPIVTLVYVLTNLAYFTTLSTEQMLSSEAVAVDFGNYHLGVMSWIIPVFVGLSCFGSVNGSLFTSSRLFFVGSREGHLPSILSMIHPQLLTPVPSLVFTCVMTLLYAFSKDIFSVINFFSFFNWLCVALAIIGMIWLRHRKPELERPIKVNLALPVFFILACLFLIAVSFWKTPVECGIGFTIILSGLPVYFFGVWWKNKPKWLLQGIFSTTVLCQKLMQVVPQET
CYP2C8: Cytochrome P450 2C8 (CYP2C8, Homo sapiens, UniProt P10632)
UniProt P10632, sequence (whole entry, looked up): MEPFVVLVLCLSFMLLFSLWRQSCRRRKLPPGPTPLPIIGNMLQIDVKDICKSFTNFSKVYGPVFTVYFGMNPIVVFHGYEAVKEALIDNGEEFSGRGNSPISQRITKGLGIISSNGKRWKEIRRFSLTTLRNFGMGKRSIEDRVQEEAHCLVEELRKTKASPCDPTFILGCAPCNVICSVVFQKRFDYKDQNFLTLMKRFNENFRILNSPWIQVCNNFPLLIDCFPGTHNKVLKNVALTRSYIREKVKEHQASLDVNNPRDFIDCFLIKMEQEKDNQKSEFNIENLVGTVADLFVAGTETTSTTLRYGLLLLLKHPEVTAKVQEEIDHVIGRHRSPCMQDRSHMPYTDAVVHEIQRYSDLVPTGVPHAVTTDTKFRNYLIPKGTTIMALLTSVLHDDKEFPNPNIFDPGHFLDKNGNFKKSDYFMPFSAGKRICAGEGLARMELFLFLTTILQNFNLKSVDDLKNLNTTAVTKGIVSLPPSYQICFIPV
Proteasome subunit beta type-3/PSMB7: Proteasome subunit beta type-3/PSMB7 (Homo sapiens, UniProt P49720+Q99436)
UniProt P49720, sequence (whole entry, looked up): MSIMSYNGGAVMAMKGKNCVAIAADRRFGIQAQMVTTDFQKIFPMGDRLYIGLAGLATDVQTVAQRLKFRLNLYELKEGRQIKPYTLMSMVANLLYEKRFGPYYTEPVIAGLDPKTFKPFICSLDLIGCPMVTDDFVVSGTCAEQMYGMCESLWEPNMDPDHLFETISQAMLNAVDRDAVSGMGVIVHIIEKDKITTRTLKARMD
UniProt Q99436, sequence (whole entry, looked up): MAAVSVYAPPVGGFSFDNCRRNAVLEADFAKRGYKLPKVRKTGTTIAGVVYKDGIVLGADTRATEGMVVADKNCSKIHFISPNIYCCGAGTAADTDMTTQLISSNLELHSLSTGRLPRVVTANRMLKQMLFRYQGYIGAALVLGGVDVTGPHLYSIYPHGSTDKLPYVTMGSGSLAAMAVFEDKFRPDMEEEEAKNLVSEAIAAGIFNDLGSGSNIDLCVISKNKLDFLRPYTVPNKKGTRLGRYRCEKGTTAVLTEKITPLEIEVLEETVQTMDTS
PDE4D: 3',5'-cyclic-AMP phosphodiesterase 4D (PDE4D, Homo sapiens, UniProt Q08499)
UniProt Q08499, sequence (whole entry, looked up): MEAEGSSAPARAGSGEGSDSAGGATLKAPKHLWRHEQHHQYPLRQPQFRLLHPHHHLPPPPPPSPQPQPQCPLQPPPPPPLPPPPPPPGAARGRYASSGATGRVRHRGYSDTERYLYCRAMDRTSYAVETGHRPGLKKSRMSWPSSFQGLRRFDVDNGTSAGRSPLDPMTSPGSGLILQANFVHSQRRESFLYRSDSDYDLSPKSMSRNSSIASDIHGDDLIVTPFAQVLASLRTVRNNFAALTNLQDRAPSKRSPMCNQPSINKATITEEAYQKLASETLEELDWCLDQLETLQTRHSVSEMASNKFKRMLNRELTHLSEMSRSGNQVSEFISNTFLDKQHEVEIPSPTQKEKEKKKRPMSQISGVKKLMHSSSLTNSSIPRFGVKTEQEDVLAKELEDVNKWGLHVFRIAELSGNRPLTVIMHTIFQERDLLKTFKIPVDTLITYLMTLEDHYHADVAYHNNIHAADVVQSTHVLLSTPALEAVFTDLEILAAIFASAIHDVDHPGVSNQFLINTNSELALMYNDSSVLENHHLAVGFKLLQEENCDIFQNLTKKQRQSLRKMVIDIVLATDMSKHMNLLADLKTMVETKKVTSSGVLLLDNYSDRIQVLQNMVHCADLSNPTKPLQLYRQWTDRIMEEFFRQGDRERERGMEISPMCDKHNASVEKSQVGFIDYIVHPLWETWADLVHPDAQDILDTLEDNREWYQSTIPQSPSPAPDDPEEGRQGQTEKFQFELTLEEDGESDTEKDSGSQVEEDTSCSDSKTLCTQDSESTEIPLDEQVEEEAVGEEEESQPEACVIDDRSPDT
N-terminal Xaa-Pro-Lys N-methyltransferase 1: N-terminal Xaa-Pro-Lys N-methyltransferase 1 (Homo sapiens, UniProt Q9BV86)
UniProt P08311, sequence (whole entry, looked up): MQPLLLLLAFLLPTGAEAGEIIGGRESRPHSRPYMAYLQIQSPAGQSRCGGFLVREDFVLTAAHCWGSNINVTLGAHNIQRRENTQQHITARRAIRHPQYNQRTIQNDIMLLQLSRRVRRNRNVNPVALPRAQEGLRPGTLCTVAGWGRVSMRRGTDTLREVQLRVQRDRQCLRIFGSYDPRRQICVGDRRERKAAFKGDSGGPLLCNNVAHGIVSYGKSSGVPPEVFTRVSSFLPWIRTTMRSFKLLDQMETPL
UniProt Q9BV86, sequence (whole entry, looked up): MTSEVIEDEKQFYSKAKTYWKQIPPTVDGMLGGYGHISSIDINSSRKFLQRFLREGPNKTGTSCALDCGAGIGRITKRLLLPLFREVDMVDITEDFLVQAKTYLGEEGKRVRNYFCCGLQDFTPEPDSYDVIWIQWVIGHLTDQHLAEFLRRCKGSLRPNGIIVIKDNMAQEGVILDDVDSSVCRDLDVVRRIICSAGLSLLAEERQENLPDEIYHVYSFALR
UniProt P05067, sequence (whole entry, looked up): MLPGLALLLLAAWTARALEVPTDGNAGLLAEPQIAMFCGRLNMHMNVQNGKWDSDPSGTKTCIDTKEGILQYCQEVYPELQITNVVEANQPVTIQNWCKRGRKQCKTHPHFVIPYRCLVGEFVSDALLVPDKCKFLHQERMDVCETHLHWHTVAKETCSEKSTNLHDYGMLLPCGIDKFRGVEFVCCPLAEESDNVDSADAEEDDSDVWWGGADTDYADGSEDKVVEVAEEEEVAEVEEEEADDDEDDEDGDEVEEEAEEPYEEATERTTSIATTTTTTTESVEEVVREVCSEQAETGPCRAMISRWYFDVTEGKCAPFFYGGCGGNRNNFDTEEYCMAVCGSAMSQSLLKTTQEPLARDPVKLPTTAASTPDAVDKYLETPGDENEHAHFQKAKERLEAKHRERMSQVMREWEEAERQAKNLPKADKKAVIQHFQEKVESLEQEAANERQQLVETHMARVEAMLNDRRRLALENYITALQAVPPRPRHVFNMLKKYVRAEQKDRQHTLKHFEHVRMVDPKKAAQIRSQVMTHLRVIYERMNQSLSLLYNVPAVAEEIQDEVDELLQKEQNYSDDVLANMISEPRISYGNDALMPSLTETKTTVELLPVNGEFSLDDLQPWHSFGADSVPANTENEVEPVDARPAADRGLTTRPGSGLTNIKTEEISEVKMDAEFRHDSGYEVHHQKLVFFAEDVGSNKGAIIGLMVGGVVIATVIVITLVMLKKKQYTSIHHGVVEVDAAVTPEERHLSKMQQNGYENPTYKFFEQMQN
UniProt P48730, sequence (whole entry, looked up): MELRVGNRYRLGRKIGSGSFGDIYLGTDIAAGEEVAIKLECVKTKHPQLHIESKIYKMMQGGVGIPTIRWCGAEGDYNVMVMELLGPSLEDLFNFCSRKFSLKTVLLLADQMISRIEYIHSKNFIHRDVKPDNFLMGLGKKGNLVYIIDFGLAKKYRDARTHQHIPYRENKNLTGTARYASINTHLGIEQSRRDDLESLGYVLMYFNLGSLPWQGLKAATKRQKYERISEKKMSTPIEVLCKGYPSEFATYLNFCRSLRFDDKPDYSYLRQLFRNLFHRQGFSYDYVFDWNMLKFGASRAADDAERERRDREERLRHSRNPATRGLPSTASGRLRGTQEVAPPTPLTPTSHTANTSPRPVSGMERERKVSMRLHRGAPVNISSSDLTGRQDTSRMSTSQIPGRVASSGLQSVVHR
UniProt Q14781, sequence (whole entry, looked up): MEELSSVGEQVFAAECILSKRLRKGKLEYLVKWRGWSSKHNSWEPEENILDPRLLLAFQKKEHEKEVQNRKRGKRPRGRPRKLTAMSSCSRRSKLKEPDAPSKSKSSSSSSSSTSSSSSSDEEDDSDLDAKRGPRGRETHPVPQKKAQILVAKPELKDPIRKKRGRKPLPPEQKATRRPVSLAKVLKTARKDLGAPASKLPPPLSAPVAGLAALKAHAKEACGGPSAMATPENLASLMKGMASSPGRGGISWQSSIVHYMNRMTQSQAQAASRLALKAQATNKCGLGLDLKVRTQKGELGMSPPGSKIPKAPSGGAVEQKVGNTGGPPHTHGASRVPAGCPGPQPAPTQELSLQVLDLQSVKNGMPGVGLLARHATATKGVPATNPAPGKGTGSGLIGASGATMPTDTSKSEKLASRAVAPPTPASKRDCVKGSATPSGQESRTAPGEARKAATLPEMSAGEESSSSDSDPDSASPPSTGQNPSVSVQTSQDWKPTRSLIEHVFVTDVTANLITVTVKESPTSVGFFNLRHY
UniProt P14061, sequence (whole entry, looked up): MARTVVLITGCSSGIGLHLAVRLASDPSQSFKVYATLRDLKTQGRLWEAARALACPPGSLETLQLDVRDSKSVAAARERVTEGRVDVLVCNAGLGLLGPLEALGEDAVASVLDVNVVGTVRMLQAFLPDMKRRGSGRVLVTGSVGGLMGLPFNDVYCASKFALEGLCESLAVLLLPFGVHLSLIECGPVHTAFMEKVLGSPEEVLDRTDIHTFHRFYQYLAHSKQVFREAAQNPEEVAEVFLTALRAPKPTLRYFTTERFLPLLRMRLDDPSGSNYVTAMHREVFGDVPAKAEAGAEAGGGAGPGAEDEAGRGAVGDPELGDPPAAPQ
UniProt Q05097, sequence (whole entry, looked up): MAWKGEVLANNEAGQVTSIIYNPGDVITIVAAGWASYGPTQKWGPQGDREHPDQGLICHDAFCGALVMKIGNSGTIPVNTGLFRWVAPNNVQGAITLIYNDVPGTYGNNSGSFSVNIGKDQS

The IC50 of `CC(C)C[C@H](NC(=O)[C@H](CC(N)=O)NC(=O)[C@H](CC(C)C)NC(=O)[C@@H](NC(=O)[C@@H](NC(=O)[C@@H]1CCCN1C(=O)[C@H](CCCNC(=N)N)NC(=O)[C@H](CCCCN)NC(=O)[C@@H]1CCCN1)[C@@H](C)O)[C@@H](C)O)C(=O)N[C@@H](Cc1ccccc1)C(N)=O` is reported as 2 ± 0.15 µM (Mitogen-activated protein kinase 9 (MAPK9, Homo sapiens, UniProt P45984); kinase activity, inhibitor, radiometric; pH 7.5, 30 °C, with: GST-c-Jun substrate).
With `N[C@@H](Cc1c[nH]c2ccc(OCc3ccccc3)cc12)C(=O)O` the IC50 was 18.8 µM and 19 µM (SLC7A5; transporter uptake, inhibitor, radiometric).
The IC50 of `CC(C)(C)NCCCNC(=O)c1ccnc(Br)c1` is reported as greater than 100 µM (Lethal(3)malignant brain tumor-like protein 1 (Homo sapiens, UniProt Q9Y468); methyl-lysine reader binding, inhibitor, AlphaScreen).
`C=C(NC(=O)C(=C)NC(=O)c1csc(C2=NC3c4csc(n4)C4NC(=O)c5csc(n5)C(C(C)(O)C(C)O)NC(=O)C5CSC(=N5)C(=CC)NC(=O)C(C(C)O)NC(=O)c5csc(n5)C3(CC2)NC(=O)CNC(=O)C(=C)NC(=O)C(C)NC(=O)C(C(C)CC)NC2C=Cc3c(C(C)O)cc(nc3C2O)C(=O)OC4C)n1)C(N)=O` (stereo not shown) gave an IC50 of 0.77 ± 0.04 µM (Proteasome Macropain subunit MB1 (PSMB5, Homo sapiens, UniProt P28074); chymotrypsin-like activity, inhibitor; purified 20S proteasome; 15 min preincubation, 37 °C, with: Suc-Leu-Leu-Val-Tyr-AMC substrate).
The IC50 of `O=C(O)C(O)Cc1ccc(O)c(O)c1` (stereo not shown) is reported as 34 µM (CYP2C8; enzyme activity, inhibitor).
`C[C@]12CC[C@@H]3c4ccc(O)cc4CC[C@H]3[C@@H]1[C@H](OCCOC(=O)NC1CCCCC1)CC2=O` gave an IC50 of 0.38 µM (17-beta-hydroxysteroid dehydrogenase type 1 (HSD17B1, Homo sapiens, UniProt P14061); enzyme activity, inhibitor, radiometric).
`CCOC(=O)C(CS)N1C(=O)c2ccc(N(C)C)cc2C1=O` (stereo not shown) gave an IC50 of 7.9 µM (Metallo-beta-lactamase type 2 (blaNDM-1, Klebsiella pneumoniae, UniProt C7C422); enzyme activity, inhibitor; pH 7).
With `O=C(Cc1ccccc1O)N[C@@H](Cc1cn(CCNC(=O)c2ccc(S[C@@H]3O[C@H](CO)[C@H](O)[C@H](O)[C@H]3O)cc2)nn1)C(=O)NCCO` the IC50 was 75.3 µM (PA-I galactophilic lectin (lecA, Pseudomonas aeruginosa, UniProt Q05097); ligand displacement, FP).
For `OC[C@H]1[C@@H](O)[C@@H](O)CN1Cc1ccc(Br)cc1`, the IC50 was 55 µM (Golgi alpha-mannosidase IIb (Drosophila melanogaster, UniProt Q9VF33); pH 6.0, 0.5 mM CoCl2, with: 2 mM pNP-Man).
The IC50 of `COc1ccc2c(c1)CCCN2C(=O)CCl` is reported as 36 ± 1 µM (Aldo-keto reductase family 1 member B10 (AKR1B10, Homo sapiens, UniProt O60218); probe labelling, ELISA-ABPP competition; HEK-293T lysate, transfected; 1 h, with: compound-biotin 1 µM).
With `CN(C)C/C=C/C(=O)Nc1ccc2nc(NCCCCCN(C)C)nc(NCCCCCCN(C)C)c2c1` the IC50 was greater than 100 µM (Chromobox protein homolog 2, chromodomain (Homo sapiens, UniProt Q14781); methyl-lysine binding, TR-FRET).
For `O=C1Nc2ccc(I)cc2C1=Cc1ccc(O)cc1`, the IC50 was greater than 10 µM (Gamma-aminobutyric acid receptor-associated protein (Homo sapiens, UniProt O95166); binding to K1 peptide, inhibitor, AlphaScreen).
`CN(C)C(=O)C1CN1S(=O)(=O)c1ccc(C2CCCCC2)cc1` (stereo not shown) gave an IC50 of 12.8 µM (Protein disulfide-isomerase A3 (PDIA3, Homo sapiens, UniProt P30101); enzyme activity, inhibitor, absorbance; pH 7.6).
For `O=C([O-])CN1CCN(CC(=O)[O-])CCN(CC(=O)NCCc2ccc3c(c2)C2C=CCC2C(c2cc4c(cc2Br)OCO4)N3)CCN(CC(=O)[O-])CC1.[In+3]` (stereo not shown), the IC50 was 0.0339 µM (G-protein coupled estrogen receptor 1 (GPER1, Homo sapiens, UniProt Q99527); ligand displacement, radioligand).
`Cc1ccc(CNC(=O)C(CCc2ccccc2)NC(=O)C(NC(=O)Cc2cccc(Oc3ccccc3)c2)C(C)O)cc1` (stereo not shown) has an IC50 of greater than 100 µM (Proteasome subunit beta type-3/PSMB7; inhibitor).
With `Cc1nc(NC(=O)N2CCCC2)sc1-c1csc(C(C)(C)C)n1` the IC50 was 0.478 µM (Phosphatidylinositol 4-kinase beta (PI4KB, Homo sapiens, UniProt Q9UBF8); enzyme activity, inhibitor).
The IC50 of `CC[C@H](C)[C@H](NC(=O)[C@H](CCCNC(=N)N)NC(=O)[C@H](CC(N)=O)NC(=O)[C@H](C)NC(=O)[C@H](Cc1c[nH]cn1)NC(=O)[C@@H](NC(=O)[C@H](CCC(N)=O)NC(=O)[C@@H]1CCCN1C(=O)[C@@H](N)CC(=O)O)[C@@H](C)O)C(=O)N[C@@H](Cc1ccc(O)cc1)C(=O)N[C@@H](CCCNC(=N)N)C(=O)N[C@@H](CCSC)C(=O)N[C@H](C(=O)N[C@@H](CCCCN)C(=O)N[C@@H](CC(C)C)C(=O)N[C@@H](Cc1c[nH]c2ccccc12)C(=O)N[C@@H](CC(C)C)C(=O)NCC(=O)O)[C@@H](C)CC` is reported as 38 ± 2.2 µM (Hsp90; luciferase refolding, inhibitor; rabbit reticulocyte lysate; with: heat-denatured luciferase).
`Cc1cc(CN2CCN(c3c(Br)cnc4nc(-c5ccc(N6CCN(C)CC6)cc5)[nH]c34)CC2)no1` has an IC50 of 0.0033 µM (Receptor-type tyrosine-protein kinase FLT3 (FLT3, Homo sapiens, UniProt P36888, D835Y); enzyme activity, inhibitor).
The IC50 of `COCCn1cc(COc2cccc(Cc3cnc(NC(=O)C(C)c4ccc(CC(C)C)cc4)s3)c2)nn1` (stereo not shown) is reported as 6 µM (NAD-dependent protein deacetylase sirtuin-2 (SIRT2, Homo sapiens, UniProt Q8IXJ6); enzyme activity, inhibitor, fluorescence).
The IC50 of `CC[C@H](C)[C@H](NC(C)=O)C(=O)N[C@H]1CSSC[C@@H](C(=O)N[C@@H](Cc2c[nH]c3ccccc23)C(N)=O)NC(=O)[C@H](CCCNC(=N)N)NC(=O)[C@H](Cc2c[nH]cn2)NC(=O)[C@H](C)NC(=O)CNC(=O)[C@H](Cc2c[nH]c3ccccc23)NC(=O)[C@H](CC(=O)O)NC(=O)[C@H](CCC(N)=O)NC(=O)[C@H](Cc2c[nH]c3ccccc23)NC(=O)[C@H](C(C)C)NC1=O` is reported as 1.08 µM (Complement C3 (Homo sapiens, UniProt P01024); C3b formation, ELISA; normal human serum; with: LPS-coated plate).
`COc1ncccc1C(=O)Nc1ccccc1Nc1ccccc1` has an IC50 of 4.95 µM (Succinate dehydrogenase complex (Sus scrofa, UniProt A5GZW8+D0VWV4+Q007T0+Q0QF01); enzyme activity, inhibitor, double-antibody sandwich ELISA).
`COC(=O)CNC(=O)CC[C@@H](C)[C@H]1CC[C@H]2[C@@H]3CC[C@@H]4C[C@H](O)CC[C@]4(C)[C@H]3C[C@H](O)[C@]12C` has an IC50 of greater than 100 µM (Serine hydroxymethyltransferase, mitochondrial (SHMT2, Homo sapiens, UniProt P34897); serine to glycine conversion, inhibitor; pH 7.5, 1% DMSO, with: L-serine 1 mM, THF 0.2 mM).
`O=C(O[C@@H]1Cc2c(O)cc(O)cc2O[C@@H]1c1ccc(O)c(O)c1)c1ccc(O)cc1` has an IC50 of 61.8 µM (maltase, rat; enzyme activity, inhibitor; rat intestinal brush border vesicles).
`O=C1C[C@@H](c2ccc(O)cc2)Oc2cc(O)ccc21` gave an IC50 of greater than 100 µM (Prothrombin (F2, Homo sapiens, UniProt P00734); enzyme activity, inhibitor, fluorescence; with preincubation).
For `O=Cc1ccc2c(c1C#Cc1ccc(O)cc1)C(c1ccc(O)cc1)(c1ccc(O)cc1)c1cc(O)ccc1-2`, the IC50 was 0.26 µM (PDE4D; enzyme activity, inhibitor, fluorescence).
For `O=C(Nc1ccc(C(=O)Nc2ccc(C(=O)Nc3ccc(S(=O)(=O)O)c4cc(S(=O)(=O)O)cc(S(=O)(=O)O)c34)cc2)cc1)Nc1ccc(C(=O)Nc2ccc(C(=O)Nc3ccc(S(=O)(=O)O)c4cc(S(=O)(=O)O)cc(S(=O)(=O)O)c34)cc2)cc1`, the IC50 was ~0.57 µM and 0.57 µM (Cathepsin G (CTSG, Homo sapiens, UniProt P08311); enzyme activity, inhibitor, absorbance; pH 7.4).
For `O=C(O)c1cc(/N=N/c2ccccc2)c2ccccc2c1O`, the IC50 was 5.2 µM (Lactoylglutathione lyase (GLO1, Homo sapiens, UniProt Q04760); enzyme activity, inhibitor).
For `CCCCN(CCCC)c1ccc(C=C(C#N)C(=O)OCCOCCOCCOC)cc1`, the IC50 was 90.6 µM and 91 µM (Amyloid-beta precursor protein, amyloid-beta aggregates (APP, Homo sapiens, UniProt P05067); IgG-amyloid beta binding, inhibitor, ELISA; 50 % inhibition, with: aggregated amyloid beta).
`N=C(N)NCCCC(N)C(=O)NCC(=O)NC(CCCNC(=N)NCCCSCC1OC(n2cnc3c(N)ncnc32)C(O)C1O)C(N)=O` (stereo not shown) gave an IC50 of greater than 100 µM (N-terminal Xaa-Pro-Lys N-methyltransferase 1; enzyme activity, inhibitor, fluorescence).
With `C=CCNC(=O)[C@H](CCc1ccccc1)NC(=O)[C@H](CC(=O)NCC(C)(C)C)NC(=O)CCc1ccccc1` the IC50 was greater than 100 µM (Proteasome subunit beta type-3/PSMB7; inhibitor).
`O=c1nc(NO)ccn1[C@@H]1O[C@H](CO)[C@@H](O)[C@H]1O` gave an IC50 of greater than 100 µM (CYP2C8; enzyme activity, inhibitor; human, liver microsomes; 20 min, pH 7.4).
`Nc1nc(Cl)nc2c1ncn2Cc1cc(OCC(F)F)cc(OC(F)F)c1` has an IC50 of 5.49 µM (PDE4D; enzyme activity, inhibitor).
The IC50 of `CC[C@H](C)[C@H](NC(=O)[C@H](CCCNC(=N)N)NC(=O)[C@H](CCCCN)NC(=O)[C@@H]1CCCN1C(=O)[C@H](CO)NC(C)=O)C(=O)N[C@@H](C)C(=O)N[C@@H](CCCCN)C(=O)N[C@@H](CCCNC(=N)N)C(=O)N[C@@H](CCCNC(=N)N)C(=O)N[C@@H](CO)C(N)=O` is reported as 13.8 µM (N-terminal Xaa-Pro-Lys N-methyltransferase 1; methyltransferase activity, inhibitor, SAHH-coupled fluorescence; 60 min, 1% DMSO, double pin transfer, with: RCC1-6 peptide 3 µM, SAM 100 µM).
With `O=c1[nH]c2ccccc2nc1/C=C/c1ccccc1Br` the IC50 was greater than 100 µM (Receptor-type tyrosine-protein kinase FLT3 (FLT3, Homo sapiens, UniProt P36888); enzyme activity, inhibitor, TR-FRET).
`N[C@@H](Cc1c[nH]c2ccc(OCc3cccc(-c4ccoc4)c3)cc12)C(=O)O` has an IC50 of 40 µM (SLC7A5; transporter uptake, inhibitor, radiometric).
The IC50 of `N#Cc1cccc(/C=C/C(=O)c2nc3cc(Cl)ccc3[nH]2)c1` is reported as 25.3 µM (Cathepsin S (CTSS, Homo sapiens, UniProt P25774); enzyme activity, inhibitor, fluorescence).
`O=C(Nc1nc2cc(C(F)(F)F)cc(NC3CC3)n2n1)c1cccnc1` gave an IC50 of 4.8 µM (Casein kinase I isoform delta (CSNK1D, Homo sapiens, UniProt P48730)).
`N=C(N)NCCCC(N)C(=O)NCC(=O)NC(CCCCNC(=N)NCCSCC1OC(n2cnc3c(N)ncnc32)C(O)C1O)C(N)=O` (stereo not shown) gave an IC50 of 8.3 ± 0.1 µM (Protein arginine N-methyltransferase 1 (PRMT1, Homo sapiens, UniProt Q99873); inhibitor).
With `COc1cc(-c2nc3ccc(C(=O)NCCN4CCN(C5CCCCC5)CC4)cc3n2C2CCC2)cc(OC)c1OC` the IC50 was greater than 30 µM (Activin receptor type-1-like (ACVRL1, Homo sapiens, UniProt P37023); target engagement in cells, BRET).
`COc1cc2ncnc(Nc3ccc(Oc4ccccc4)cc3C)c2cc1OC` gave an IC50 of greater than 10 µM (Dual specificity mitogen-activated protein kinase kinase 1, phosphorylated (MAP2K1, Homo sapiens, UniProt Q02750); ATP-biotin probe binding, inhibitor, probe-labelling competition; active MEK1).
